Results pooled from the literature.
Numbered parts are unrelated; each lists some results of a single study. Changes are numbered by the printed parent chain.

Study 1
Target: CCND1, cyclin fold, Cln2 fusion (human)
Method: yeast growth competition, sequencing
Matrix: yeast
Notes: strong parent motif
Baseline: not given
Direction: higher = stronger binding
Parent: RBL2 docking peptide (human); STTRRRLFVENDS
| Substitution | normalised enrichment score |
| --- | --- |
| F8T | 0.451 |
| R6P | -0.0452 |
| S13W | 0.786 |
| S1Q | 0.569 |
| V9F | 1.91 |
| N11H | 0.531 |
| D12T | 0.654 |
| S13C | 1.1 |
| R5Y | 0.548 |
| D12N | 0.199 |
| T2S | 1.47 |
| D12I | 0.879 |
| R6C | 1.39 |
| T2K | 1.83 |

Study 2
Target: Histone acetyltransferase KAT6A, both winged helices, GST fusion (KAT6A, Homo sapiens, UniProt Q92794, residues 1-181)
Method: protein binding microarray
Molecule type: double-stranded DNA, one strand shown
Matrix: in vitro
Tested at: not given
Notes: 8-mer, flanks averaged, mean of 2 arrays, mostly near background
Baseline: not given
Direction: higher = stronger binding
Residues (chain): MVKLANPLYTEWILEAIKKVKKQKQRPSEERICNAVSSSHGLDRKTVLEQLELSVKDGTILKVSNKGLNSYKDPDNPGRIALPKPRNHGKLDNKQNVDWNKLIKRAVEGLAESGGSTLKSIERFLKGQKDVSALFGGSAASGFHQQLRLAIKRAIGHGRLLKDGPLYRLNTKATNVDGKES
| Strand | E-score |
| --- | --- |
| GGAAAATA | 0.0108 |
| AAATGGAA | -0.197 |
| AAGTGCTG | -0.238 |
| AGATGACC | 0.0675 |
| GGAACCAC | 0.063 |
| ATCTAGCG | 0.139 |
| AACGGCAA | 0.191 |
| ACGGTGGA | -0.034 |
| GAACAACA | -0.0688 |
| ACGCCAGA | 0.0121 |
| AATATTTA | -0.0531 |
| AATATGAC | -0.139 |
| GCGTAGTA | 0.0962 |
| AAGTAGCT | -0.266 |
| AACGCGTG | 0.347 |
| GGGAGGTA | -0.0109 |
| GTCTGACA | 0.0568 |
| ACTGGAAT | -0.212 |
| TAACCGTA | 0.191 |
| CCTAGAAC | -0.126 |
| CGTAGGAG | -0.00481 |
| AGAACAAG | -0.196 |
| AATCCAAT | -0.0331 |
| ACTTAGAG | -0.218 |
| CTCTGCAA | -0.122 |

Study 3
Target: ABI1, truncated, D143A, DHFR fusion (Arabidopsis thaliana)
Method: DHFR PCA, deep sequencing
Matrix: yeast
Notes: methotrexate growth selection, single substitutions
Added: (+)-ABA 0.11 µM
Baseline: wild-type fitted maximum
Direction: higher = stronger binding
Parent: PYL1, truncated, DHFR fusion (Arabidopsis thaliana); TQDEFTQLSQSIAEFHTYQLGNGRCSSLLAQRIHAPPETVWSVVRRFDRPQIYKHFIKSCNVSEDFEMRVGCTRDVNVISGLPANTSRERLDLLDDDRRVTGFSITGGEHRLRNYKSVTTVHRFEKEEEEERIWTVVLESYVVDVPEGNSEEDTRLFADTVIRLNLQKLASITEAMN
| Substitution | relative binding score [%] |
| --- | --- |
| L29M | 7.4 |
| V78N | 42.2 |
| T1C | 34.8 |
| L138Y | -4.89 |
| E38I | -1.56 |
| T1E | 38.9 |
| Y53K | -4.4 |
| R155Y | -5.17 |
| E38H | 4.42 |
| V62C | -0.0294 |
| T17D | -6.96 |
| L166E | 8.92 |
| G108R | -2.36 |
| E38Q | -2.7 |

Study 4
Target: Prothrombin, mature alpha-thrombin (F2, Homo sapiens, UniProt P00734)
Method: aptamer microarray, sandwich
Molecule type: DNA with 2'F-ANA
Matrix: in vitro
Tested at: 200 nM
Notes: whole 15-mer aptamer, many near background
Added: Cy3 exosite-II aptamer, 400 nM
Direction: higher = stronger binding
Strand: GGTTGGTGTGGTTGG
| Modification | mean fluorescence intensity |
| --- | --- |
| 2'F-ANA at 1 3 5 6 7 8 9 10 12 | 70.6 a.u. |
| 2'F-ANA at 2 3 4 5 7 8 10 11 13 | 61.7 a.u. |
| 2'F-ANA at 1 2 3 4 6 7 9 10 12 15 | 71.9 a.u. |
| 2'F-ANA at 2 3 5 8 9 12 14 15 | 60 a.u. |
| 2'F-ANA at 1 2 3 5 7 9 10 11 12 13 14 15 | 48.2 a.u. |
| 2'F-ANA at 2 5 6 7 14 15 | 41.9 a.u. |
| 2'F-ANA at 1 2 4 7 9 12 14 | 66.4 a.u. |
| 2'F-ANA at 1 2 4 5 6 7 11 | 51.8 a.u. |
| 2'F-ANA at 3 4 6 7 13 | 424 a.u. |
| 2'F-ANA at 2 3 4 6 7 10 15 | 240 a.u. |
| 2'F-ANA at 1 3 7 10 12 13 14 15 | 102 a.u. |
| 2'F-ANA at 1 3 5 6 9 11 12 15 | 107 a.u. |
| 2'F-ANA at 5 6 8 9 11 12 13 | 89.4 a.u. |
| 2'F-ANA at 1 2 3 4 5 6 8 11 14 | 53.1 a.u. |
| 2'F-ANA at 1 3 5 6 8 9 10 15 | 50.4 a.u. |
| 2'F-ANA at 1 3 4 5 9 11 12 13 15 | 64 a.u. |
| 2'F-ANA at 2 4 7 8 12 15 | 708 a.u. |
| 2'F-ANA at 3 5 6 7 8 | 146 a.u. |
| 2'F-ANA at 1 3 4 5 8 9 11 12 13 14 15 | 53.8 a.u. |

Study 5
Target: Ras GTPase-activating protein-binding protein 1, full length (G3BP1, Homo sapiens, UniProt Q13283)
Chain of UniProt Q13283 (whole entry, looked up): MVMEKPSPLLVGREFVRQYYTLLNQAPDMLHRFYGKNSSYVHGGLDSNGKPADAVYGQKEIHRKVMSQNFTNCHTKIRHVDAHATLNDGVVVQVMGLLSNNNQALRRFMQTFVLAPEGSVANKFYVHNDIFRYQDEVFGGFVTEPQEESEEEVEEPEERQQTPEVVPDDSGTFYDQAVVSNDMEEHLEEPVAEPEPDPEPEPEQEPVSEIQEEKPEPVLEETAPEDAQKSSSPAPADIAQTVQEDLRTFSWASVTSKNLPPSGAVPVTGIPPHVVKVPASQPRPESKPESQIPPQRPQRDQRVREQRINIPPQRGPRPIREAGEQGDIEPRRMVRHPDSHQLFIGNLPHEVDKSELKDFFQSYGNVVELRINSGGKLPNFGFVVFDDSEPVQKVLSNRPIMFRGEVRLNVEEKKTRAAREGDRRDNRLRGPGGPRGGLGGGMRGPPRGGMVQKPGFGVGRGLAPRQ
Method: RNA Bind-n-Seq
Molecule type: RNA
Matrix: in vitro
Tested at: 200 nM
Notes: whole 134-nt RNA, ends assumed
Added: 150 mM LiCl
Baseline: input library
Direction: higher = stronger binding
All molecules: 7-deaza-guanosine replaces G
Constant ends, left off below: GGGAGUUCUACAGUCCGACGAUC … UGGAAUUCUCGGGUGUCAAGG
| Strand | log2 enrichment |
| --- | --- |
| ACCAUGCAGGUGGGCAUCUUUGGGAAGUGGGGCAAGGGGGGGAUAGGGAGGGGGGUAACACUUUGGGAACAGGUGGUCCCAGGUCAUUUC | 0.196 |
| UGGCCCUGGUGGCAUGCGGGGAGGAAGAGGUGGCCUCAUGGAUCGUGGUGGUCCCGGCGGAAUGUUCAGAGGUGGCCGUGGUGGAGACAG | 0.16 |
| UUGACGAGGCCGGCCCGGGAGAUGAGACCACCGGCCAGGAAGUCAUUGUCAUUCAGGACACGGGCUUUUCUGUGAAGAUCCUCGCCCCUG | -1.51 |
| GUCCUGUGCUACACAUCGUAUGUACCGAAUCGGCCCCCCGGGCCCCCCGGCCCCCCGGGAAAGUAUUAUGUUACGCCGUUCGGAUCUGCA | -1.1 |
| CCUGUGCUACACAUCGUAUGUACCGAAUCGGGUUUUUUUGGGAAAAAGGGUUUUUUUGGGAAAGUAUUAUGUUACGCCGUUCGGAUCUGC | -2.22 |
| CAAGUCCUGUGCUACACAUCGUAUGUACCGAAUCGGGAAAAGGGAAAAGGAAAAGGAAAGUAUUAUGUUACGCCGUUCGGAUCUGCACUU | -1.05 |
| AGUCCUGUGCUACACAUCGUAUGUACCGAAUCAAAUUUUUAAACCCCCAAAUUUAAAAAAGUAUUAUGUUACGCCGUUCGGAUCUGCACU | -0.562 |
| CCUGUGCUACACAUCGUAUGUACCGAAUCGGGGUUUUUUUGGGGAAAGGGGAAAAAGGGGAAAGUAUUAUGUUACGCCGUUCGGAUCUGC | 0.428 |
| GCAGGAAGUAAAAACAAAUGGAAAUGCUUCGGAUAGUGGCACGGGUGGGGGUUGCUAAGGAAAGGGUGGGAUGGGAGUGGGUAAAGAGUU | -0.1 |
| UCCUGUGCUACACAUCGUAUGUACCGAAUCAAACCCCCAAACCCCCCCAAAUUUUUAAAAAAGUAUUAUGUUACGCCGUUCGGAUCUGCA | 0.875 |
| UGGCCCUGGUGGCAUGCGGGGAGGAAGAGGUGGCCUCAUGGAUCGUGGUGGUCCCGGUGGAAUGUUCAGAGGUGGCCGUGGUGGAGAUAG | 0.321 |

Other studies, line by line
| Substance | target | assay | test system | conditions | scale | quantity | result |
| --- | --- | --- | --- | --- | --- | --- | --- |
| PhoQ, residues 284 288 289 292 302 303 SSTLSG | PhoP, residues 12 14 15 18 19 LHATL (Escherichia coli, UniProt P23836) | Sort-seq, measured: YFP reporter | E. coli | PhoQ-PhoP variant library, added: 10 µM Mg2+ | baseline: high Mg2+ state, higher = stronger signaling | fold induction | 1.77 |

Some of these lines once more (study 2):
| Strand | E-score |
| --- | --- |
| CTCTGCAA | -0.122 |
| AGATGACC | 0.0675 |
| AGAACAAG | -0.196 |
| ACGCCAGA | 0.0121 |
| CGTAGGAG | -0.00481 |
| GGGAGGTA | -0.0109 |
| GCGTAGTA | 0.0962 |
